Earlier results as cited in several papers.
± marks the error that the study gave.

SMILES | tested on | assay | system | setting | scale | endpoint | value
O=C(Nc1ccccc1-c1cccc(Cl)c1)c1nccnc1C(F)(F)F | Blumeria graminis |  | barley |  |  | EC80 | 2 to 10 mg a.i./L
CCC(C)C(=O)c1c(O)c(CCC(C)C)c(O)c2c1OC(=O)CC2c1ccccc1 (stereo not drawn) | Leishmania amazonensis |  | promastigotes |  |  | IC50 | 0.9 µM
Nc1ncnc2c1ncn2Cc1cn(CP(=O)(O)O)nn1 | hepatitis C virus | viral replication |  |  |  | IC50 | 16 µM
COCCOCCOCCOCCC(=O)NCc1cc(CNC(=O)CCOCCOCCOCCOC)cc(-c2cc3cc4nc(c(OC)c5[nH]c(cc6nc(cc2[nH]3)CC6(C)C)cc5-c2cc(CNC(=O)CCOCCOCCOCCOC)cc(CNC(=O)CCOCCOCCOCCOC)c2)CC4(C)C)c1 |  |  | PBS | room temperature |  | intersystem crossing yield | 0.4
COC(=O)C1=CO[C@@H](C)[C@@H]2Cn3ccc4c5ccccc5nc-4c3C[C@H]12 | Plasmodium falciparum |  | K1 | 48 h |  | IC50 | > 30 µM
COC(=O)c1[nH]c(C(=O)OC)c2c1-c1c[nH]c3cc(Cl)cc(c13)[C@@]21C=Nc2ccc(Cl)cc21 | Leishmania amazonensis |  | promastigotes |  |  | IC50 | 1.3 µM
C/C=C1\NC(=O)[C@H](Cc2ccccc2)NC(=O)[C@H](C(C)C)NC(=O)[C@H](Cc2c[nH]cn2)NC(=O)[C@H](CCC(N)=O)NC(=O)[C@H](Cc2c[nH]c3ccccc23)NC(=O)[C@H]2CSC[C@@H](C(=O)N[C@@H](CO)C(=O)O)NC(=O)[C@H](CSC[C@H]3NC(=O)[C@H]([C@@H](C)CC)NC(=O)[C@H](NC(=O)[C@H](Cc4c[nH]cn4)NC(=O)[C@@H](NC(=O)[C@@H](NC(=O)CNC(=O)[C@H](CO)NC(=O)CNC(=O)CNC(=O)[C@@H](N)CCCCN)C(C)C)[C@@H](C)CC)[C@H](C)SC[C@H](NC(=O)[C@H](CCC(=O)O)NC(=O)[C@H](Cc4c[nH]cn4)NC3=O)C(=O)N[C@@H](CCCNC(=N)N)C(=O)N[C@@H](CCSC)C(=O)N[C@@H](CC(N)=O)C(=O)N2)NC1=O | Lactococcus lactis subsp. cremoris | cell growth | HP |  |  | IC50 | 0.428 ± 0.021 µM
C[C@@H](Nc1c(-c2c(F)cc(C#CCCN)cc2F)c(Cl)nc2ncnn12)C(C)(C)C | HEK293 |  |  | 1 µM, 4 h, unit not given | relative to: vehicle (DMSO) | acetylated α-tubulin level | 2.49 ± 0.17
O=C(Nc1ccccc1-c1ccc(Cl)cc1)c1nccnc1C(F)(F)F | Blumeria graminis |  | barley |  |  | EC80 | 5 to 20 mg a.i./L
CC(C)c1ccc(CNC(=O)/C=C/c2ccccc2)cc1 | Leishmania infantum | parasite growth |  |  |  | IC50 | 33.7 µM
O=[N+]([O-])c1ccc(C(c2c[nH]c3ccc(I)cc23)c2c[nH]c3ccc(I)cc23)cc1 | Leishmania donovani |  | promastigote |  |  | IC50 | < 10 µM
Clc1ccc(CNCC(c2c[nH]c3cc(Br)ccc23)c2c[nH]c3cc(Br)ccc23)cc1 | Leishmania infantum |  | promastigotes |  |  | IC50 | 2.7 µM
C/C=C1\NC(=O)[C@H](Cc2ccccc2)NC(=O)[C@H](C(C)C)NC(=O)[C@H](Cc2ccncc2)NC(=O)[C@H](CCC(N)=O)NC(=O)[C@H](Cc2c[nH]c3ccccc23)NC(=O)[C@H]2CSC[C@@H](C(=O)N[C@@H](CO)C(=O)O)NC(=O)[C@H](CSC[C@H]3NC(=O)[C@H]([C@@H](C)CC)NC(=O)[C@H](NC(=O)[C@H](Cc4c[nH]cn4)NC(=O)[C@@H](NC(=O)[C@@H](NC(=O)CNC(=O)[C@H](CO)NC(=O)CNC(=O)CNC(=O)[C@@H](N)CCCCN)C(C)C)[C@@H](C)CC)[C@H](C)SC[C@H](NC(=O)[C@H](CCC(=O)O)NC(=O)[C@H](Cc4c[nH]cn4)NC3=O)C(=O)N[C@@H](CCCNC(=N)N)C(=O)N[C@@H](CCSC)C(=O)N[C@@H](CC(N)=O)C(=O)N2)NC1=O | Lactococcus lactis subsp. cremoris | cell growth | HP |  |  | IC50 | 0.213 ± 0.009 µM
CC(=O)O[C@H](COP(=O)(O)O)[C@@H](OC(C)=O)C(=O)NO | Trypanosoma brucei rhodesiense | parasite growth, whole parasite |  |  |  | IC50 | 229 µM
O=C(/C=C/c1ccc(O)c(O)c1)N1CCN(Cc2ccccc2)CC1 | Trypanosoma cruzi |  | amastigotes |  |  | IC50 | 13 ± 7.1 µM
CC1(C)O[C@H](COP(=O)(O)O)[C@H](C(=O)NO)O1 | Trypanosoma brucei rhodesiense | parasite growth, whole parasite |  |  |  | IC50 | > 332 µM
COc1ccc(C(=O)Nc2cc(OC)c(OC)c(OC)c2)cc1NC(=O)C(C)Br (stereo not drawn) | Hepatitis C virus | viral replication |  |  |  | IC50 | 1.46 ± 0.62 µM
C[C@@H](Nc1c(-c2c(F)cc(OCCCO)cc2F)c(Cl)nc2ncnn12)C(C)(C)C | HEK293 |  |  | 1 µM, 4 h, unit not given | relative to: vehicle (DMSO) | total α-tubulin level | 0.96 ± 0.03
CN1C(=O)[C@@H](Cc2ccc(O)cc2)NC(=O)CNC(=O)[C@H](Cc2ccc3ccccc3c2)NC(=O)[C@H](CCCNC(=N)N)NC(=O)[C@H]1CCCNC(=O)c1ccc(CNC(=O)CN2CCN(CC(=O)O)CCN(CC(=O)O)CCN(CC(=O)O)CC2)cc1 [gallium-68 labelled] |  | image-based dosimetry | human patients, red marrow |  |  | absorbed dose coefficient | 0.014 mGy/MBq
COc1cc(O)c(-c2ccc(OC)c3c(O)cc(C)c(-c4cc(-c5c(O)cc(OC)c6c5C[C@H](C)N(C)[C@@H]6C)c5cc(C)cc(OC)c5c4O)c23)c2c1[C@@H](C)N(C)[C@H](C)C2 | Leishmania donovani |  | MHOM/ET/67/L82 | amastigotes |  | IC50 | 94.2 µM
Cc1cccnc1-n1cccc1C(=O)c1ccc(F)cc1 | Leishmania amazonensis |  | promastigotes |  |  | IC50 | 16.9 µM
CNC(C)CCC(O)Cn1c2ccc(Cl)cc2c2cc(Cl)ccc21 (stereo not drawn) | Plasmodium | parasite growth |  |  |  | IC50 | 0.07 µM
CCOC(=O)c1c(C(=O)OC)cn(CC(c2cn(C)c3ccccc23)c2cn(C)c3ccccc23)c1C | Leishmania infantum |  |  |  |  | IC50 | 3.7 µM
COc1ccc(CNC(=O)c2[nH]c3cc(C)sc3c2CN2CCCCC2)cc1 | Giardia duodenalis | growth | assemblage B BRIS/91/HEPU/1279 | 48 h |  | IC50 | > 10 µM
